Experimental data gathered from unrelated publications.
Each numbered part is a random draw from the data of one study; scales do not carry over between parts. Positions count from the first letter of the parent shown.

Sample 1 — technique: universal PBM; molecule type: double-stranded DNA, one strand shown; matrix: in vitro; concentration: 600 nM; reading: higher = stronger binding
Target: Sal-like protein 4, full length isoform A (SALL4, Homo sapiens, UniProt Q9UJQ4, residues 1-1053)
UniProt Q9UJQ4, sequence (whole entry, looked up): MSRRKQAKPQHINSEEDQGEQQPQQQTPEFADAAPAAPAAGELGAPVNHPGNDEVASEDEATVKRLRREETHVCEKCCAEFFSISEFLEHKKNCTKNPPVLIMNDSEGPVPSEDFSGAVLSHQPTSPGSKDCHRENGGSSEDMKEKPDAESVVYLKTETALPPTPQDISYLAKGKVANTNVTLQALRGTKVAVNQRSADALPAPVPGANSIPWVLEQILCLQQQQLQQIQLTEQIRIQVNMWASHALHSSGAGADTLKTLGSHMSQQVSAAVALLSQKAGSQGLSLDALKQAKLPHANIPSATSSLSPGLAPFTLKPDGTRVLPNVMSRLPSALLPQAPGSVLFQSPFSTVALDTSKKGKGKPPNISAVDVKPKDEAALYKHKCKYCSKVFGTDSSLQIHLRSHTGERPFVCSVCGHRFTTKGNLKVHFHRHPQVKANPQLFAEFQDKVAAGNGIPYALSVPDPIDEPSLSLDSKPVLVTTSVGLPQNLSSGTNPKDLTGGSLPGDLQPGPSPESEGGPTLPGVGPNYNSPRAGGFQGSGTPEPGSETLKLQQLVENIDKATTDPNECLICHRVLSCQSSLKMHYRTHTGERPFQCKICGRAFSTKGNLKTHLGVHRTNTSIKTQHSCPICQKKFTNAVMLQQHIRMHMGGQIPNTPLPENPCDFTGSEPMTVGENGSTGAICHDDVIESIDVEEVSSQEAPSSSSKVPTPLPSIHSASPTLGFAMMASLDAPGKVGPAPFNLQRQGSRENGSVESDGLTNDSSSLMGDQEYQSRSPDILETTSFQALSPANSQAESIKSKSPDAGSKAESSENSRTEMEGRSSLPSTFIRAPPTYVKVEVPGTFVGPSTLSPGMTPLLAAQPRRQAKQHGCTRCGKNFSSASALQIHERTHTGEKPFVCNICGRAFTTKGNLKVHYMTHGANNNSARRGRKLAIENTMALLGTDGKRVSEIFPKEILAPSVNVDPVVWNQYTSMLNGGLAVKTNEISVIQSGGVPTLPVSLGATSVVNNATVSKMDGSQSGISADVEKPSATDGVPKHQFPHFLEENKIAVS
Setting: 8-mer, flanks averaged, mean of replicates
With `ATGGCGTG` the E-score was -0.0462.
The E-score of `CGCCACCC` is reported as -0.299.
The E-score of `AAACTACC` is reported as 0.145.
The E-score of `GCGGCCGA` is reported as -0.2.
With `CGCTCCCA` the E-score was -0.188.
For `GAAACTTC`, the E-score was -0.0417.
`GATTCGGC` has an E-score of -0.183.

Sample 2 — target: CCND2, cyclin fold, Cln2 fusion (human); technique: yeast growth competition, sequencing; matrix: yeast; setting: weak parent motif; reference: not given; reading: higher = stronger binding
Starting sequence: CDC6 docking peptide (human); TLKGRRLVFDNQL
For `N11P`, “normalised enrichment score” read -0.0228.
Under “normalised enrichment score”, `L2S` is recorded as -0.157.
`N11C`: “normalised enrichment score” 0.524.
For `D10F`, “normalised enrichment score” read 0.221.
`T1W` — result for “normalised enrichment score”: 0.368.
Under “normalised enrichment score”, `L13T` is recorded as -0.294.
For `L7C`, “normalised enrichment score” read 0.301.
`Q12P`: “normalised enrichment score” 0.12.

Sample 3 — technique: RNAcompete; molecule type: RNA; matrix: in vitro; concentration: 20 nM; setting: 7-mer, probes averaged, single round; reference: mean of 7-mers; reading: higher = stronger binding
Target: PABPC1L2, full length, GST fusion (mouse, UniProt A0ABA7IW68)
Target sequence (chain): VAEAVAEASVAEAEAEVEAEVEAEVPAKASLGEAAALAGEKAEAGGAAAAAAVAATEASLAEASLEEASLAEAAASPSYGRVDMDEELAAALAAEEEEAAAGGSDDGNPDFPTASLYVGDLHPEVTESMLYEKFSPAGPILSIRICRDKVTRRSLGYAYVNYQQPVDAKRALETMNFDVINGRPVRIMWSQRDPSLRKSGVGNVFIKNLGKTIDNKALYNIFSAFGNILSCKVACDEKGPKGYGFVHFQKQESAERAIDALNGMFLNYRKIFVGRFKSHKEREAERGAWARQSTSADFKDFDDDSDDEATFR
For `AGGACCU`, the 7-mer Z-score was -0.113.
With `CAGCACA` the 7-mer Z-score was -0.0355.
With `UUAUCAG` the 7-mer Z-score was -0.186.
`GUAUCAG` has a 7-mer Z-score of -0.177.
For `UUAAUAU`, the 7-mer Z-score was -0.117.
`UUGGAGU` has a 7-mer Z-score of -0.238.
`UUAAAGA` gave a 7-mer Z-score of 0.941.

Other studies, line by line
The fold induction of `PhoQ, residues 284 288 289 292 302 303 TVTVVA` is reported as 3.68 (PhoP, residues 12 14 15 18 19 SEGLL (Escherichia coli, UniProt P23836); Sort-seq, item: YFP reporter; E. coli; PhoQ-PhoP variant library, together with: 10 µM Mg2+; reference: high Mg2+ state, higher = stronger signaling).

For quick reference, copied from above (sample 1):
The E-score of `AAACTACC` is reported as 0.145.
The E-score of `GCGGCCGA` is reported as -0.2.
